Measured values collected from several papers.
Compare with care: the assays were run in different laboratories.
Cell line: MDA-MB-468
Observed: cell growth or viability

Structure (SMILES)	test	setting	IC50
CCCCCCCCn1c(-c2cccnc2)nc(-c2ccccc2)c1-c1ccccc1	SRB	24 h	67 µM
Cc1ccc(C(C)C)cc1.[C-]#[O+].[C-]#[O+].[C-]#[O+].[Cl-].[Cl-].[Cl-].[Re+].[Ru+2].c1cnc(-c2ncccn2)nc1	MTT	48 h	111 µM
C#Cc1cccc(Nc2ncnc3cc(OCCOC)c(OCCOC)cc23)c1	trypan blue		> 20 µM
N=C(N)NCCC[C@H](NC(=O)[C@H](Cc1c[nH]c2ccccc12)NC(=O)[C@H](CCC(N)=O)NC(=O)[C@H](Cc1c[nH]c2ccccc12)NC(=O)[C@H](CCCNC(=N)N)NC(=O)[C@H](Cc1c[nH]c2ccccc12)NC(=O)[C@H](CCC(N)=O)NC(=O)[C@H](Cc1c[nH]c2ccccc12)NC(=O)[C@@H](N)CCCNC(=N)N)C(N)=O	MTT		49 µM
CCCCCCCCC=CCCCCCCCC(=O)OC(COC(=O)Cc1c(C)n(C(=O)c2ccc(Cl)cc2)c2ccc(OC)cc12)COP(=O)([O-])OCC[N+](C)(C)C (stereo not shown)	SRB	72 h	67.5 µM
CN1CCN(c2ccc(Nc3nccc(-c4cn(C5CCCC5)nn4)n3)cc2)CC1	SRB	72 h	7.96 µM
c1ccc(-c2nc(-c3cccnc3)[nH]c2-c2ccccc2)cc1	SRB	24 h	94.6 µM
CC(C)Cn1cc(-c2ccnc(Nc3ccc(C(=O)Nc4ccccc4N)cc3)n2)nn1	SRB	72 h	2.36 µM
CCCCCC(C)n1c(-c2cccnc2)nc(-c2ccc(C)cc2)c1-c1ccc(C)cc1 (stereo not shown)	SRB	48 h	82.8 µM
CC(C)Cn1cc(-c2nc(Nc3ccc(OCCCCCCC(=O)NO)cc3)ncc2F)nn1	SRB	72 h	2.33 µM
CCCCCCCCCCCCCCn1c(-c2cccnc2)nc(-c2ccc(C)cc2)c1-c1ccc(C)cc1	SRB	48 h	> 100 µM
CN1CCN(c2ccc(Nc3ncc(F)c(-c4cn(C5CCCCC5)nn4)n3)cc2)CC1	SRB	72 h	> 10 µM
Cc1ccc(C(C)C)cc1.O=C(N=P(c1ccccc1)(c1ccccc1)c1ccccc1)c1ccccn1.[Cl-].[Cl][Ru+]	resazurin		6.98 µM

Excerpt of the above:
Structure (SMILES)	test	setting	IC50
c1ccc(-c2nc(-c3cccnc3)[nH]c2-c2ccccc2)cc1	SRB	24 h	94.6 µM
